Assay results gathered from unrelated publications.
Each numbered part is a random draw from the data of one study; scales do not carry over between parts.

Block 1
Target: Replicase polyprotein 1ab, main protease (rep, Severe acute respiratory syndrome coronavirus 2, UniProt P0DTD1)
Read-out: enzyme activity
Mode: inhibitor
Concentration: 20 µM
Notes: hit confirmation
SMILES	inhibition [%]
O=C1C2CC=CCC2C(=O)N1SC(Cl)(Cl)Cl (stereo not shown)	100
O=C(O)C(=O)CBr	74
CN(C)CCNc1nc2cc(O)ccc2c2c1C(=O)c1ccccc1-2	97.5
CCN(CC)C(=S)SSC(=S)N(CC)CC	99.9

Block 2
Target: Replicase polyprotein 1ab, nsp13 helicase (rep, Severe acute respiratory syndrome coronavirus 2, UniProt P0DTD1)
Mode: inhibitor
Concentration: 20 µM
Compound	inhibition
Cc1cc(-c2nc(C(=O)Nc3cn(C4CCOCC4)nc3C(N)=O)co2)ccn1	3.7%
O=c1oc(-c2ccc(C(F)(F)F)cc2)nn1Cc1cc(Cl)ccc1O	-1.38%
NNc1nncc2ccccc12	3.7%
COC(=O)[C@H](Cc1ccccc1)NC(=O)[C@@H](N)CC(=O)O	-3.55%
CN(C)C(=O)Oc1cccc([N+](C)(C)C)c1	3.72%
c1ccc2c(c1)sc1ccccc12	2.98%
CCOc1ccc(C[C@H]2NC(=O)CCSSC[C@@H](C(=O)N3CCC[C@H]3C(=O)N[C@@H](CCCN)C(=O)NCC(N)=O)NC(=O)[C@H](CC(N)=O)NC(=O)[C@H]([C@@H](C)O)NC(=O)[C@H]([C@@H](C)CC)NC2=O)cc1	3.56%
NCCC[C@H](N)CC(=O)N[C@H]1CNC(=O)[C@H]([C@H]2C[C@H](O)NC(N)=N2)NC(=O)/C(=C/NC(N)=O)NC(=O)[C@H](CO)NC(=O)[C@H](CO)NC1=O	0.9%
N[C@H]1CCN(O)C1=O	5.33%
O=S(=O)(O)Oc1ccc(C(c2ccc(OS(=O)(=O)O)cc2)c2ccccn2)cc1	3.01%
NC[C@H](O)c1ccc(O)c(O)c1	7%
CC(C)OC(=O)N[C@H]1Cc2c(n(Cc3ccccn3)c3ccc(C#N)cc23)C1	13.4%
COc1cc2c(Oc3ccc4[nH]c(C)cc4c3F)ccnc2cc1OCC1(N)CC1	-0.5%
CC1(CN)Cc2ccccc2C1	-2.57%
CC(=O)c1ccc2c(c1)N(CCCN(C)C)c1ccccc1S2	2.54%
c1ccc(CCCN2CCN(CCOC(c3ccccc3)c3ccccc3)CC2)cc1	6.5%
C[C@H]1[C@H](NC(=O)/C(=N\OC(C)(C)C(=O)O)c2csc(N)n2)C(=O)N1S(=O)(=O)O	6.85%

Block 3
Cell line: HEK-293T
Organism: VSV pseudotyped with SARS-CoV-2 spike
Concentration: 10 µM
Time: 16 h
SMILES	pseudovirus infection
CN(C)CCC=C1c2ccccc2C=Cc2ccccc21	28.2%
CC(C)NCC(O)COc1ccc(CC(N)=O)cc1 (stereo not shown)	99.1%
CN(C)C(=N)N=C(N)N	71.1%

Other studies, line by line
Spike glycoprotein with ACE2: Spike glycoprotein, with ACE2 (Severe acute respiratory syndrome coronavirus 2, UniProt P0DTC2)
rep main protease: Replicase polyprotein 1ab, main protease (rep, Severe acute respiratory syndrome coronavirus 2, UniProt P0DTD1)
nanI: Sialidase (nanI, Clostridium perfringens, UniProt A0A0H2YQR1)
SMILES	target or system	test	system	setting	scale	measurement	value
CC1(C)CC2(C)OC(=O)NC2(C)c2ccccc21 (stereo not shown)	Replicase polyprotein 1ab, nsp13 helicase (rep, Severe acute respiratory syndrome coronavirus 2, UniProt P0DTD1)	binding, affinity selection mass spectrometry	–	–	relative to: other proteins in batch	log fold enrichment	0.176
CCOc1ccc(N=Nc2ccc(-c3ccc(N=Nc4c(O)ccc5cc(S(=O)(=O)O)cc(S(=O)(=O)O)c45)c(C)c3)cc2C)cc1	Spike glycoprotein with ACE2	binding to human ACE2, inhibitor	SARS-CoV-2	–	–	IC50	2.25 nM
C[C@H](NC(=O)C(=O)Nc1ccccc1C(C)(C)C)C(=O)N[C@@H](CC(=O)O)C(=O)COc1c(F)c(F)cc(F)c1F	rep main protease	reporter gene (mKate2), inhibitor	–	20 µM	–	inhibition	0.881%
CCc1c(C(=O)C(N)=O)c2c(OCC(=O)O)cccc2n1Cc1ccccc1	C2C12	–	–	10 µM, added: KA venom	relative to: venom alone	viability difference	20.8%
CCCCCc1cn([C@H]2[C@H]([C@H](O)[C@H](O)CO)OC(C(=O)O)=C[C@@H]2O)nn1	nanI	enzyme activity, inhibitor	–	–	–	IC50	> 500000 nM
CC(C)c1nc(CN(C)C(=O)N[C@H](C(=O)N[C@@H](Cc2ccccc2)C[C@H](O)[C@H](Cc2ccccc2)NC(=O)OCc2cncs2)C(C)C)cs1	rep main protease	reporter gene (Gaussia luciferase), inhibitor	–	20 µM	–	inhibition	-2.29%
Nc1ccc(N=Nc2ccc(-c3ccc(N=Nc4c(S(=O)(=O)O)cc5cc(S(=O)(=O)O)c(N=Nc6ccccc6)c(O)c5c4N)cc3)cc2)c(N)c1	Spike glycoprotein with ACE2	binding to human ACE2, inhibitor	SARS-CoV-2	–	–	IC50	38 nM
CC(=O)N(C)[C@H]1[C@H]([C@H](O)[C@H](O)CO)OC(C(=O)O)=C[C@@H]1O	nanI	enzyme activity, inhibitor	–	–	–	IC50	> 500000 nM
Cc1ncc(/C=C\C(=O)N2C[C@@H](NC(=O)c3ccc[nH]c3=O)CC3(CCOCC3)C2)c(=O)[nH]1	rep main protease	enzyme activity	–	5 µM, mean of runs	–	inhibition	15.7%
CNC(=O)[C@@H](NC(=O)[C@H](CC(C)C)[C@H](O)C(=O)NO)C(C)(C)C	C2C12	–	–	1 µM, added: KL venom	relative to: venom alone	viability difference	5.99%

For quick reference, copied from above (block 1):
SMILES	inhibition [%]
O=C1C2CC=CCC2C(=O)N1SC(Cl)(Cl)Cl (stereo not shown)	100
O=C(O)C(=O)CBr	74
CN(C)CCNc1nc2cc(O)ccc2c2c1C(=O)c1ccccc1-2	97.5
CCN(CC)C(=S)SSC(=S)N(CC)CC	99.9
